{"data": "Experimental data of several laboratories", "note": "A part holds a random share of what one study measured."}
{"data": "Sample 1", "target": "Ras GTPase-activating protein-binding protein 1, full length (G3BP1, Homo sapiens, UniProt Q13283)", "method": "RNA Bind-n-Seq", "molecule type": "RNA", "medium": "in vitro", "tested at": "200 nM", "notes": "whole 134-nt RNA, ends assumed", "together with": "150 mM KCl", "relative to": "input library", "reading": "higher = stronger binding", "constant ends, left off below": "GGGAGUUCUACAGUCCGACGAUC … UGGAAUUCUCGGGUGUCAAGG", "sequence of UniProt Q13283 (whole entry, looked up)": "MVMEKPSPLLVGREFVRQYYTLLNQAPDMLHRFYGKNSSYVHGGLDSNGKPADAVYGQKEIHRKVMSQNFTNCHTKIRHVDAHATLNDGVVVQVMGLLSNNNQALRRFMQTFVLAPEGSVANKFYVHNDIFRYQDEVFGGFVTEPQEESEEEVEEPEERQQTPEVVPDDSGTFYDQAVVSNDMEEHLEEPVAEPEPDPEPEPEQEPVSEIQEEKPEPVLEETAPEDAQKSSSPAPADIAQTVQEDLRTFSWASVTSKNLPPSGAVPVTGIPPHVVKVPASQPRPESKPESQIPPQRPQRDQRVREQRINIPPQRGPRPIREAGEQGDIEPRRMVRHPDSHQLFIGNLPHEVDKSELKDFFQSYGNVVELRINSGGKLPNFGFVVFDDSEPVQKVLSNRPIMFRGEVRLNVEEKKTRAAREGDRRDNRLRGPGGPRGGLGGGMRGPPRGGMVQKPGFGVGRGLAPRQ"}
{"Strand": "CACAGACAACACGCACCCACACAGACACAGAGGGAAGGGGUUGGGAUGGGGACAGGGUGCACAGCAGGGCGGGGUAGGACGCCAGCCCCU", "log2 enrichment": 1.92}
{"Strand": "GCAGGAAGUAAAAACAAGUGGAAAUGCUUCGGAUAGUGGCAGGGGUGGGGGUUGCUAAGGAAAGGGUGGGAUGGGAGUGGGUAAAGAGUU", "log2 enrichment": 1.39}
{"Strand": "CAAGUCCUGUGCUACACAUCGUAUGUACCGAAUCAAACCCAAACCCAAACCCAAAAAAGUAUUAUGUUACGCCGUUCGGAUCUGCACUUC", "log2 enrichment": -0.614}
{"Strand": "CAAGUCCUGUGCUACACAUCGUAUGUACCGAAUCGGGUGGGUUUUUUUGGGUGGGAAAGUAUUAUGUUACGCCGUUCGGAUCUGCACUUC", "log2 enrichment": 0.244}
{"Strand": "UCCUCAAGUCCUGUGCUACACAUCGUAUGUACCGAAUCGGGGCGGGCGGCGGAAAGUAUUAUGUUACGCCGUUCGGAUCUGCACUUCCAG", "log2 enrichment": -0.285}
{"Strand": "AAGUCCUGUGCUACACAUCGUAUGUACCGAAUCGGGGAAAGGGGAAAGGGGAAAGGGAAAGUAUUAUGUUACGCCGUUCGGAUCUGCACU", "log2 enrichment": 0.0795}
{"Strand": "GUCCUGUGCUACACAUCGUAUGUACCGAAUCGGGGUUUUUUUGGGGUGGGGAAAGGGGAAAGUAUUAUGUUACGCCGUUCGGAUCUGCAC", "log2 enrichment": 0.421}
{"Strand": "UCCUGUGCUACACAUCGUAUGUACCGAAUCGGGAAAAAGGGAAAAAGGGUUUUUUUGGGAAAGUAUUAUGUUACGCCGUUCGGAUCUGCA", "log2 enrichment": -0.501}
{"Strand": "UCCUGUGCUACACAUCGUAUGUACCGAAUCAAACCCCCCCAAACCCCCCCAAACCCAAAAAAGUAUUAUGUUACGCCGUUCGGAUCUGCA", "log2 enrichment": 0.367}
{"data": "Sample 2", "target": "PABPC1L2, full length, GST fusion (mouse, UniProt A0ABA7IW68)", "method": "RNAcompete", "molecule type": "RNA", "medium": "in vitro", "tested at": "20 nM", "notes": "7-mer, probes averaged, single round", "relative to": "mean of 7-mers", "reading": "higher = stronger binding", "Construct (chain)": "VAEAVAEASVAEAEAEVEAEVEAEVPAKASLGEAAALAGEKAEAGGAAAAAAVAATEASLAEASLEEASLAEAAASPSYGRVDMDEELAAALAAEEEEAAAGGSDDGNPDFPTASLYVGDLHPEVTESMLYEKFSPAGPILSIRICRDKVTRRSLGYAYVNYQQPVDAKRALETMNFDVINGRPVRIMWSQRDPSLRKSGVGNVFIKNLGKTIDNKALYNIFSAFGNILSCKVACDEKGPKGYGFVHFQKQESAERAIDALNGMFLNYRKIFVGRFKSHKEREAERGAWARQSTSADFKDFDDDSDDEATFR"}
{"Strand": "CAAAGUA", "7-mer Z-score": 0.398}
{"Strand": "CCAAUCC", "7-mer Z-score": -0.431}
{"Strand": "GAUAAUU", "7-mer Z-score": -0.0482}
{"Strand": "ACACUGA", "7-mer Z-score": 0.0261}
{"Strand": "GAGCGAC", "7-mer Z-score": 0.104}
{"Strand": "CCCCGUU", "7-mer Z-score": -0.447}
{"Strand": "ACUGGUA", "7-mer Z-score": -0.0554}
{"Strand": "GGCUCGU", "7-mer Z-score": -0.251}
{"data": "Sample 3", "target": "Interferon regulatory factor 7, full length, phosphomimetic (IRF7, Homo sapiens, UniProt Q92985, residues 1-503, S471D/S472D/S475D/S476D/S477D/S483D/S484D/S487D)", "method": "protein-binding microarray", "molecule type": "double-stranded DNA, one strand shown", "medium": "in vitro", "tested at": "2200 nM top", "notes": "60-bp whole probe", "together with": "salmon DNA 0.4 mg/ml", "relative to": "random background probes", "reading": "higher = stronger binding", "constant ends, left off below": "GCCTAGCAC … GTCTTGATTCGCTTGACGCTGCTG", "sequence of UniProt Q92985 (whole entry, unmodified, looked up)": "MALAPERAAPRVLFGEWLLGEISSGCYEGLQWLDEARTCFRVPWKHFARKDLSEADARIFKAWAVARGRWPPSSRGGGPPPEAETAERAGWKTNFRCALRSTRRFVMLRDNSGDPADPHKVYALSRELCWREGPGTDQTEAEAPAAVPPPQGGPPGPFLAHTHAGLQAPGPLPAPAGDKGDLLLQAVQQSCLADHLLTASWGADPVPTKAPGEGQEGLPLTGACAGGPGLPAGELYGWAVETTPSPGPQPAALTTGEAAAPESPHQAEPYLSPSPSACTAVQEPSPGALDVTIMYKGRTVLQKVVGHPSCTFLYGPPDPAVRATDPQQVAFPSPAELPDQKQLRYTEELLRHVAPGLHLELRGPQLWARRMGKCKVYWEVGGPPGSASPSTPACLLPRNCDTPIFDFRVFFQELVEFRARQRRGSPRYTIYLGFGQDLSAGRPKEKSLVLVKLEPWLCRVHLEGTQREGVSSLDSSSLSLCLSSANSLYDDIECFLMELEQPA"}
{"Strand": "GACGATTTCGGGATTCGAGACGTGCTA", "fitted relative affinity": "2.43 z-score"}
{"Strand": "TTAGATTTCAGCATCGATTAGTGCTAG", "fitted relative affinity": "0.238 z-score"}
{"Strand": "TGGAACCAGCGAACGAGCGGGTGCTAG", "fitted relative affinity": "-0.484 z-score"}
{"Strand": "GACGGTTTCGGATCCGGGACGTGCTAG", "fitted relative affinity": "6.48 z-score"}
{"Strand": "GAAGATCTCAGACTGGAGACGTGCTAG", "fitted relative affinity": "-0.408 z-score"}
{"Strand": "TTAGAACTGGGGACTGTATTAGTGCTA", "fitted relative affinity": "-0.253 z-score"}
{"Strand": "GACGGACTGGACACTGGGAACGTGCTA", "fitted relative affinity": "-1.07 z-score"}
{"Strand": "GACGGAATCGGACTGGGGACGTGCTAG", "fitted relative affinity": "-0.399 z-score"}
{"Strand": "GATGGTTTCGGTCTCGGGACGTGCTAG", "fitted relative affinity": "6.77 z-score"}
{"data": "Other studies, line by line"}
{"Molecule": "PhoQ, residues 284 288 289 292 302 303 TGYLSA", "target": "PhoP, residues 12 14 15 18 19 AWHSL (Escherichia coli, UniProt P23836)", "assay": "Sort-seq, item: YFP reporter", "system": "E. coli", "conditions": "PhoQ-PhoP variant library, together with: 10 µM Mg2+", "how to read": "relative to: high Mg2+ state, higher = stronger signaling", "quantity": "fold induction", "result": 3.01}
{"note": "For quick reference, copied from above (sample 2):"}
{"Strand": "ACACUGA", "7-mer Z-score": 0.0261}
{"Strand": "GAGCGAC", "7-mer Z-score": 0.104}
{"Strand": "CCAAUCC", "7-mer Z-score": -0.431}
{"Strand": "ACUGGUA", "7-mer Z-score": -0.0554}
